Measurements gathered from unrelated publications.
A part holds a random share of what one study measured.

Series 1
Target: Prothrombin, mature alpha-thrombin (F2, Homo sapiens, UniProt P00734)
Technique: aptamer microarray, sandwich
Molecule type: DNA with 2'F-ANA
Sample: in vitro
Tested at: 200 nM
Setting: whole 15-mer aptamer, many near background
With: Cy3 exosite-II aptamer, 400 nM
Direction: higher = stronger binding
Sequence: GGTTGGTGTGGTTGG
Modification | mean fluorescence intensity
2'F-ANA at 2 7 8 9 10 13 | 124 a.u.
2'F-ANA at 2 7 10 | 153 a.u.
2'F-ANA at 3 5 7 9 13 14 | 55.9 a.u.
2'F-ANA at 1 4 5 6 7 10 13 14 | 43.1 a.u.
2'F-ANA at 4 5 6 7 8 9 10 11 14 15 | 46.9 a.u.
2'F-ANA at 2 5 12 13 14 | 47.5 a.u.
2'F-ANA at 1 7 8 11 12 | 383 a.u.
2'F-ANA at 2 5 7 8 9 11 12 13 15 | 90.7 a.u.
2'F-ANA at 3 6 7 8 11 14 | 571 a.u.
2'F-ANA at 2 6 7 8 12 14 | 227 a.u.
2'F-ANA at 1 2 3 5 6 8 9 10 13 14 15 | 61.2 a.u.
2'F-ANA at 1 2 10 11 12 13 | 62.4 a.u.
2'F-ANA at 1 2 3 4 7 8 11 12 13 14 | 106 a.u.
2'F-ANA at 1 3 4 5 6 9 10 14 | 49.5 a.u.
2'F-ANA at 2 3 4 7 10 12 14 | 222 a.u.
2'F-ANA at 1 2 5 8 9 11 13 | 49.5 a.u.

Series 2
Target: Hepatocyte nuclear factor 3-beta, forkhead domain (FOXA2, Homo sapiens, UniProt Q9Y261, residues 142-269)
Technique: protein-binding microarray
Molecule type: double-stranded DNA, one strand shown
Sample: in vitro
Tested at: not given
Setting: k-mer, scored over probes, only values ≥0.25
Direction: higher = stronger binding
Residues (chain): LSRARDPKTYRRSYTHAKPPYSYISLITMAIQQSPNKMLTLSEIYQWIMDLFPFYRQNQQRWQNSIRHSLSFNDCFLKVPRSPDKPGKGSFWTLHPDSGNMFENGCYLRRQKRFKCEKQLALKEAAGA
Sequence | E-score
AACACATA | 0.408
ATGTAGTC | 0.253
AATAATCT | 0.283
AAATCAAA | 0.262
AGTTTGTA | 0.283
ATTACAAG | 0.347
TCCAACAA | 0.258
AGTACTAC | 0.283
TGTGTAAA | 0.34
GTCCATTA | 0.331
ATACATAA | 0.344
GTAATTAA | 0.29
ATATAGGA | 0.257

Series 3
Target: Sal-like protein 4, full length isoform B (SALL4, Homo sapiens, UniProt Q9UJQ4-2, residues 1-616)
Technique: universal PBM
Molecule type: double-stranded DNA, one strand shown
Sample: in vitro
Tested at: not given
Setting: 8-mer, flanks averaged, mean of replicates
Direction: higher = stronger binding
Target sequence (chain): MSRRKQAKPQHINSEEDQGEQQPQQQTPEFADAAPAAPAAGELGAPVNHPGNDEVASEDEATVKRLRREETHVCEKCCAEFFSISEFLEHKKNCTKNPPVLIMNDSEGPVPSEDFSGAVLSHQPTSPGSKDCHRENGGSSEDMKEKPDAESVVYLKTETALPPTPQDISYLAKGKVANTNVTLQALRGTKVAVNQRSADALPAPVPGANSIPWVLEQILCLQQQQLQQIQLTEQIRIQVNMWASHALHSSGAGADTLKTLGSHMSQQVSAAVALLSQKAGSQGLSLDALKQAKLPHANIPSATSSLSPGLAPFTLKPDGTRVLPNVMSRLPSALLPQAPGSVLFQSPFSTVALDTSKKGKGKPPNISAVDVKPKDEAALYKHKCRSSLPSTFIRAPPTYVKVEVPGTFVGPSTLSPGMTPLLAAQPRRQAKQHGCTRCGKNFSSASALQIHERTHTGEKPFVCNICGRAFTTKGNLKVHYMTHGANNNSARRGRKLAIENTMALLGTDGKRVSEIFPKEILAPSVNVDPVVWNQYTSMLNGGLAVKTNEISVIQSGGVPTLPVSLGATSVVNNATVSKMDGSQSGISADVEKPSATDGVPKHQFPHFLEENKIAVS
Sequence | E-score
CCTAACCC | -0.255
CGGGACGA | -0.243
CACAATCG | 0.00388
AGTTGATG | 0.171
GCATTCGC | -0.0676
GTAGCGGA | -0.161
CGCCCTTA | -0.089
GCAGTCGA | -0.124
GAATTAGC | 0.0307
TCTATAGA | 0.156
ATGACTTG | 0.0752
CGTCATAG | 0.0533
AATATCCA | 0.309
AGGTTAAA | 0.155
CGACTATC | -0.135
TGGGCCAA | -0.112

Series 4
Target: Interferon regulatory factor 7, full length, phosphomimetic (IRF7, Homo sapiens, UniProt Q92985, residues 1-503, S101K/S471D/S472D/S475D/S476D/S477D/S483D/S484D/S487D)
Chain of UniProt Q92985 (whole entry, unmodified, looked up): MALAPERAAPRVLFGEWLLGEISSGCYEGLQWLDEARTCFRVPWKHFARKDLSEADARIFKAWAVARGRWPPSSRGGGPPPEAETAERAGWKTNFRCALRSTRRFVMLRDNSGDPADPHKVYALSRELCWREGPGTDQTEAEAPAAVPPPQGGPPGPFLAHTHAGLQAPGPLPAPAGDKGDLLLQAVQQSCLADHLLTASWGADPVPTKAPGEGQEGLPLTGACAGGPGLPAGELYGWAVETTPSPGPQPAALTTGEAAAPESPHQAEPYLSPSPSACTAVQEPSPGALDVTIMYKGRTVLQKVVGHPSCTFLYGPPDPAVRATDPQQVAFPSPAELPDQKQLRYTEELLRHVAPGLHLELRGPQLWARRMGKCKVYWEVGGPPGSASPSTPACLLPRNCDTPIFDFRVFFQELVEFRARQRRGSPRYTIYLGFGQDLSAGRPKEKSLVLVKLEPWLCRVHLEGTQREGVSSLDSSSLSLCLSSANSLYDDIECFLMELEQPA
Technique: protein-binding microarray
Molecule type: double-stranded DNA, one strand shown
Sample: in vitro
Tested at: 250 nM
Setting: 60-bp whole probe
With: salmon DNA 0.4 mg/ml
Baseline: random background probes
Direction: higher = stronger binding
Constant ends, left off below: GCCTAGCAC … GTCTTGATTCGCTTGACGCTGCTG
Sequence | log fluorescence
GGAGCGCCAGGCCCCGGCAGGTGCTAG | -1.2 z-score
TCATTTTCATTTTCCAAACTGTGCTAG | 4.22 z-score
TTAGGTATCGGTATGGGTTAGTGCTAG | 1.36 z-score
GAAGGTATCCTTCTCCTGACGTGCTAG | 0.352 z-score
CACCCACTCTTTCCTCACCATGTGCTA | 0.882 z-score
TTAGAACTGCTTCTCCTTTAGTGCTAG | 0.391 z-score
GACGGTTCGCTTTTCCTGACGTGCTAG | 1.88 z-score
GACGTTCTCGGACTGGGGACGTGCTAG | 0.401 z-score
TTCTTACTTTGGGATTCTGAGTGCTAG | 0.466 z-score
GACGGACTGGGGTGTCGGGACGTGCTA | -0.735 z-score
GACGGTCTCTTTCTCCTGACGTGCTAG | 0.674 z-score
AATCATTCACCTGTCGTTGAGTGCTAG | -0.0484 z-score

Series 5
Target: RNA binding protein fox-1 homolog 2, RRM domain, GST-SBP tag (RBFOX2, Homo sapiens, UniProt O43251-10, residues 100-194)
Technique: RNA Bind-n-Seq
Molecule type: RNA
Sample: in vitro
Tested at: 365 nM
Setting: natural RNA segment, single round, ends assumed
Baseline: no-protein control
Direction: higher = stronger binding
Constant ends, left off below: GGGAGUUCUACAGUCCGACGAUC … UGGAAUUCUCGGGUGCCAA
Residues (chain): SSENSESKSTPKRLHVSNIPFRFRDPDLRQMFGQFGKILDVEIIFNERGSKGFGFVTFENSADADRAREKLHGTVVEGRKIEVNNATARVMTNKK
Sequence | RBNS enrichment (R)
AUUGGAGAAUGCUUGGUUUGCAUGUCUUGUGAUUUCUCCUGUAUUGUUCCUAGCUAAUUUCAUGGCUGUGGGAAGUUAGCAACACUAGGUUUAUGACUCUGAAGACCAGA | 8.78
UGGGAAGAGACGCCUUCAUUUGGGACGAAACUGGAGAUGUUAUAAGCAGAAACUCUGAAGAAAAGGAUUAUUUAAAGGACUCUAUGGGGAGAAAGAGAAGGCAACUCCUC | 0.467
ACCAUCAUACUGACACUCUUUUCCUUUAGGAAACCCUCACUGACUGACCUAGGGAGCCCUACGAAGUUGUUAACACAGUACUUCUUAGCAUUCCUACGUUAUCCAUAUGU | 0.235
GGUUCAAAACUUACUGCAUUUUAAUUUUUCACUUAACUUAUAACAUGUCUUGCUUCUCCAGUGUGUGGAAGGCACCGGGCAGUUUGCAGAGAUAAGCAAAACACAGUUCC | 3.69
CCGUAUCAGUACAGCUUUCACCUGGGUUGUCCGUUGUAGUGUCUGGGAAGCUUGAGGGUUCCCUUCUUAGGACCAGCGGGUGGUUUGUGAAAUGCUUAGCUGGUUAGCAU | 1.94
AGAAGGAAGAGUGAGGGGUCUGUCCAUGGGGUGGCAGUGAUUUCACACCCGCCUUUCUUGAAUGGCUUCGUGUUACUCAGCCGUGCCCUGGCAGGAAUGGAACUCCAUCA | 0.356
AAGUAACCUAACAGAGCUUUGAUGUUAUAGCUGCAUUAAAGAAGGUGAUUGUCAAUAUUACAGAAAACAAAAAUGGAUUGCCCCUCCAAGGACCAAACAGAUUCAAGGAG | 0.434
UGUAUAUGGCUCCACUGUGGCUUGUGACACUUUUAAAAUCAUCCGUAUGUCAGUGUAUCUGGAUACACGAGGAAAAGGAAAGAGUCUCAGAGUGGAACAAAGAGUGGGAA | 0.631

Series 6
Target: Centromere-binding protein 1, full length, His-tagged (CBF1, Saccharomyces cerevisiae, UniProt P17106, residues 1-351)
Chain of UniProt P17106 (whole entry, looked up): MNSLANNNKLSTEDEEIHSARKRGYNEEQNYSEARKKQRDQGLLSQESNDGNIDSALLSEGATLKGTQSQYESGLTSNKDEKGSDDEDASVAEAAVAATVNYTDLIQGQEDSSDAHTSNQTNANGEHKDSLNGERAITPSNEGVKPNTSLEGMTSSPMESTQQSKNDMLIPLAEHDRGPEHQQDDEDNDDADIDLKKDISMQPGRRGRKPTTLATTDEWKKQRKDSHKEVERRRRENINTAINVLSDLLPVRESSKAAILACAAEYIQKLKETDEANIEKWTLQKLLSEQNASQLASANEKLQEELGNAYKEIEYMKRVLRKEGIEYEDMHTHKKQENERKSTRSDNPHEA
Technique: competition protein-binding microarray
Molecule type: double-stranded DNA, one strand shown
Sample: in vitro
Tested at: 2 µM
Setting: whole 60-bp probe, lowest competitor level
With: Pho4 competitor, 0.05 µM
Direction: higher = stronger binding
Constant ends, left off below: … GTCTTGATTCGCTTGACGCTGCTG
Sequence | fluorescence intensity
TGTTGAGTTACACCCCGCGTGCTAAAAAAGGGGTGA | 101 a.u.
TGCGCAACAACTTTTCACGTGCCTTTATGTCTAGAA | 1550 a.u.
AAAGCGGTAATTTGTCACCCCACTTCACATATCTAT | 79.6 a.u.
ACATATAGTTTTTTGCACGTGATGGAACTTCTAAGT | 4640 a.u.
CGCTACCAACTGCGCCATGTGCCCTAAAACGCGTAC | 134 a.u.
GATGAGTGAGGAGAAAACGTGCAAATAATAAAATTA | 301 a.u.
CGGGGTTAAGTTTGTCACACCACTTGCTTGCAGCAG | 105 a.u.
CGGGGTTAAGTTTGACCGGTGGGTGGCTTGCAGCAG | 63 a.u.
ACTATGAGAGCTTGGTGCGTGGCCGAAAGGAATAAA | 64.3 a.u.
GCGCTGCTGGTGGTGCCCGTGGTGAAGCCAAGGTCG | 51.5 a.u.
TGACGGCGAAGCTCGCACGTGCGCAGCCCGGGGGCG | 997 a.u.
GCAAGGAAGATGAAACACGATGTCGTTGTGATGAGG | 107 a.u.
CTTTCCCGATCTTGACCCGTGGGTGTAGCACATTTG | 75.5 a.u.
AAGGACATACACAACCACAGACAAGGTCATATCGCG | 64.2 a.u.
GGATTAGACAATGGAGAAGATGGGATGAGACACATT | 66.6 a.u.
AATTTGATAATTTGGCATGTGCGATCTCTTCGAAAA | 120 a.u.
GTCTTGTCTCATTGGTCGGTGGGTGTCCCCACTTCA | 76.3 a.u.
TGCGCAACAACTTGTCCCGTGGGTGTATGTCTAGAA | 95.6 a.u.
CATACCCAACCTTTTCACGTGCACTAAGATATTTGT | 1430 a.u.
CATACCCAACCTTGGCGCGTGGGTGAAGATATTTGT | 78.6 a.u.
GAACCGATGACGAGGCACATGGGGATAGAACCTCCG | 64.9 a.u.
GAATCGCAAGATACCCACGATGAGACTGTTCAGGTT | 62.2 a.u.
GGATTTGGCTACGGCCACGTCCAATTTTCACTTGCT | 63.3 a.u.
AGGATAATGTATTGTCATGCTGACGTATCCCATTCT | 114 a.u.
GAAACCAGATTTTGAGGCGTGCTTTGCAACTGTGAA | 81.8 a.u.
